Measured values of several laboratories.
Lines come from different studies, so protocols differ. Numbers after ± are the reported error.
Sequence of UniProt Q14012 (whole entry, looked up): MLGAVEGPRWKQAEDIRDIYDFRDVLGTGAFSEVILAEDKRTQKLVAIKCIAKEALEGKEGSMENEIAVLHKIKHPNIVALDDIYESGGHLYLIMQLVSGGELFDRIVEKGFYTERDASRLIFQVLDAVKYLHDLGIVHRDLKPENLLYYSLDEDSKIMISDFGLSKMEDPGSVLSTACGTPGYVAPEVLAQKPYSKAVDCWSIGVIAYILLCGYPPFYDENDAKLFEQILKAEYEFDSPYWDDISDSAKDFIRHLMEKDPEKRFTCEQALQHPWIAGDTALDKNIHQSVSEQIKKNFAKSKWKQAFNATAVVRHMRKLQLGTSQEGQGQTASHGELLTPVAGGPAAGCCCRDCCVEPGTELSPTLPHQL
Sequence of UniProt P04629 (whole entry, looked up): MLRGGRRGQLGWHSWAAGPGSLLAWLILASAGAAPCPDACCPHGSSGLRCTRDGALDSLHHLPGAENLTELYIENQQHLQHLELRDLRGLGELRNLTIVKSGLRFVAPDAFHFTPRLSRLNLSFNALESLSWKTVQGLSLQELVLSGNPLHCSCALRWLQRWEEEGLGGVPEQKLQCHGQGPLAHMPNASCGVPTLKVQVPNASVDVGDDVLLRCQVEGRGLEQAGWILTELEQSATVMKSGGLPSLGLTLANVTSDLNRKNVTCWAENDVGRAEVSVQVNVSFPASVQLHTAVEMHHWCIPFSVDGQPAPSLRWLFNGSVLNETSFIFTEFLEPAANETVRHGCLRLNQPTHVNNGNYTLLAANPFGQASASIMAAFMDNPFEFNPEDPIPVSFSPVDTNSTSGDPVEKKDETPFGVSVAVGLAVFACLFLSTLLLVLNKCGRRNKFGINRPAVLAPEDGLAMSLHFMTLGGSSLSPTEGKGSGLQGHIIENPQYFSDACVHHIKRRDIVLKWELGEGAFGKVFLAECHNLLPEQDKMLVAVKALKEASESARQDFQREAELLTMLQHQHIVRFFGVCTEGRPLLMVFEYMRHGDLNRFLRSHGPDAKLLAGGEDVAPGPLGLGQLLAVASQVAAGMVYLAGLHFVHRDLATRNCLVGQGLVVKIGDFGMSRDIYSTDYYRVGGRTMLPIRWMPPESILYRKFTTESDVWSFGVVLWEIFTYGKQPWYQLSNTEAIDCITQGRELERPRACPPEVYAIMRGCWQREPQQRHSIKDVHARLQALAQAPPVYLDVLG
Sequence of UniProt P48736 (whole entry, looked up): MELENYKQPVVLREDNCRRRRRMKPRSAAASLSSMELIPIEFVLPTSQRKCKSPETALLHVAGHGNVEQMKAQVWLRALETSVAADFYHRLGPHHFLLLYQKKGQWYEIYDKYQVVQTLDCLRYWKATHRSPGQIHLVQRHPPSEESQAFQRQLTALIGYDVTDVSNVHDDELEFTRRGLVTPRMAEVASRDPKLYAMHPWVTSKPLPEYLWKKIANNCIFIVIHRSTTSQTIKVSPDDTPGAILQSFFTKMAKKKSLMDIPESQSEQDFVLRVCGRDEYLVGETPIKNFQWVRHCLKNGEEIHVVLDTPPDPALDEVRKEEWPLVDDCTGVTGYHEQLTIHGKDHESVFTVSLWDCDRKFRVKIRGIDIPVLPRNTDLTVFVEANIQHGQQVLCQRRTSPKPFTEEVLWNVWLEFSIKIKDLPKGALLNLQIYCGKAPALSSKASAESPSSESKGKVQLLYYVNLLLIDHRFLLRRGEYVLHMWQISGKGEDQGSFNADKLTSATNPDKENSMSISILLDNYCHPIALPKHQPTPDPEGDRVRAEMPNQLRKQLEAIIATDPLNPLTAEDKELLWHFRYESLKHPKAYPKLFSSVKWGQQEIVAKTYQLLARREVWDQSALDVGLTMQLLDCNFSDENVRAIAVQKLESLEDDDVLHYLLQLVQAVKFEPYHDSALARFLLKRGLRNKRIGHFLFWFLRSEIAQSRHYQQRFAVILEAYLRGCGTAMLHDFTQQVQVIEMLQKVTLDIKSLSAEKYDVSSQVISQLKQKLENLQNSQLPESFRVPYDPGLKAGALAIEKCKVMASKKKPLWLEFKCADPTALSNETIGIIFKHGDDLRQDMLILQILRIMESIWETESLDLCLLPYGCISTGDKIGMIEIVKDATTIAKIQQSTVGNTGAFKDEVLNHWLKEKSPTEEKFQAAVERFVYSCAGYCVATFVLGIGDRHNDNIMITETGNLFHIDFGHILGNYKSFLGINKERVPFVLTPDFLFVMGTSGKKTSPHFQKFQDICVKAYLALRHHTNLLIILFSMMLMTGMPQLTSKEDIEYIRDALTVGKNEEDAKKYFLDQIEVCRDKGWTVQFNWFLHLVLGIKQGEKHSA
Sequence of UniProt Q15831 (whole entry, looked up): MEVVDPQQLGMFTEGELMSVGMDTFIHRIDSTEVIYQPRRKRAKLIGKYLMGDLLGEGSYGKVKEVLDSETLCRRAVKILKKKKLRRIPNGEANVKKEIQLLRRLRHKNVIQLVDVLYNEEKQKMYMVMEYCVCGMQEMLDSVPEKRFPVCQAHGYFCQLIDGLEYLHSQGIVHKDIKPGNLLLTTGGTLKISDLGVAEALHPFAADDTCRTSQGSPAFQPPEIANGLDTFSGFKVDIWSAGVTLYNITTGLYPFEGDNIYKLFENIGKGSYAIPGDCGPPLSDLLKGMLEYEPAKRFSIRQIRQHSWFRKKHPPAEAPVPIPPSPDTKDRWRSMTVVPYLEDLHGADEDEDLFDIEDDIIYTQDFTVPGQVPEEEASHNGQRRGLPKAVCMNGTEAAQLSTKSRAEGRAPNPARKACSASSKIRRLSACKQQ
Sequence of UniProt P52564 (whole entry, looked up): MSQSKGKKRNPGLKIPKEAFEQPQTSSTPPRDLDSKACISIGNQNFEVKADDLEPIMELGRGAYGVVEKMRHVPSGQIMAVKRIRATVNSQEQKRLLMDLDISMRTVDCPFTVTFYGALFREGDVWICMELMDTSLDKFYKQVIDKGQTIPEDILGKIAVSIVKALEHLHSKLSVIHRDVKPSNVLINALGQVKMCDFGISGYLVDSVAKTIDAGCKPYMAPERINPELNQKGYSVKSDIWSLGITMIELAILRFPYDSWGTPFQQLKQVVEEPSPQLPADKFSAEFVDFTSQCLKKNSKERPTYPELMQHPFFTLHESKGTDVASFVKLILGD
Sequence of UniProt P31749 (whole entry, looked up): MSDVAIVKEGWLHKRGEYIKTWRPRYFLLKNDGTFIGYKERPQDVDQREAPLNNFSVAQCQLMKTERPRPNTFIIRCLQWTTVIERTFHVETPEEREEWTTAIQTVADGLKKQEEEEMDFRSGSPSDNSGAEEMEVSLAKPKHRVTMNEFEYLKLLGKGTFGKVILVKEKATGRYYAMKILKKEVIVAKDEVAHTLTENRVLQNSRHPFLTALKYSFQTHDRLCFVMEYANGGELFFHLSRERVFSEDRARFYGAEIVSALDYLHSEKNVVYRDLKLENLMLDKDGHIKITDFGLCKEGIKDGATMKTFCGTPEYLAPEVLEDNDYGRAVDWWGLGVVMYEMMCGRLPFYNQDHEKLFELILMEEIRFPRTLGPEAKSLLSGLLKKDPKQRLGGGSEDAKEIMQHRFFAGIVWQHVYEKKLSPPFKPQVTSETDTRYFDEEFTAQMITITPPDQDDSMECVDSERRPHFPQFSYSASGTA
Sequence of UniProt Q92626 (whole entry, looked up): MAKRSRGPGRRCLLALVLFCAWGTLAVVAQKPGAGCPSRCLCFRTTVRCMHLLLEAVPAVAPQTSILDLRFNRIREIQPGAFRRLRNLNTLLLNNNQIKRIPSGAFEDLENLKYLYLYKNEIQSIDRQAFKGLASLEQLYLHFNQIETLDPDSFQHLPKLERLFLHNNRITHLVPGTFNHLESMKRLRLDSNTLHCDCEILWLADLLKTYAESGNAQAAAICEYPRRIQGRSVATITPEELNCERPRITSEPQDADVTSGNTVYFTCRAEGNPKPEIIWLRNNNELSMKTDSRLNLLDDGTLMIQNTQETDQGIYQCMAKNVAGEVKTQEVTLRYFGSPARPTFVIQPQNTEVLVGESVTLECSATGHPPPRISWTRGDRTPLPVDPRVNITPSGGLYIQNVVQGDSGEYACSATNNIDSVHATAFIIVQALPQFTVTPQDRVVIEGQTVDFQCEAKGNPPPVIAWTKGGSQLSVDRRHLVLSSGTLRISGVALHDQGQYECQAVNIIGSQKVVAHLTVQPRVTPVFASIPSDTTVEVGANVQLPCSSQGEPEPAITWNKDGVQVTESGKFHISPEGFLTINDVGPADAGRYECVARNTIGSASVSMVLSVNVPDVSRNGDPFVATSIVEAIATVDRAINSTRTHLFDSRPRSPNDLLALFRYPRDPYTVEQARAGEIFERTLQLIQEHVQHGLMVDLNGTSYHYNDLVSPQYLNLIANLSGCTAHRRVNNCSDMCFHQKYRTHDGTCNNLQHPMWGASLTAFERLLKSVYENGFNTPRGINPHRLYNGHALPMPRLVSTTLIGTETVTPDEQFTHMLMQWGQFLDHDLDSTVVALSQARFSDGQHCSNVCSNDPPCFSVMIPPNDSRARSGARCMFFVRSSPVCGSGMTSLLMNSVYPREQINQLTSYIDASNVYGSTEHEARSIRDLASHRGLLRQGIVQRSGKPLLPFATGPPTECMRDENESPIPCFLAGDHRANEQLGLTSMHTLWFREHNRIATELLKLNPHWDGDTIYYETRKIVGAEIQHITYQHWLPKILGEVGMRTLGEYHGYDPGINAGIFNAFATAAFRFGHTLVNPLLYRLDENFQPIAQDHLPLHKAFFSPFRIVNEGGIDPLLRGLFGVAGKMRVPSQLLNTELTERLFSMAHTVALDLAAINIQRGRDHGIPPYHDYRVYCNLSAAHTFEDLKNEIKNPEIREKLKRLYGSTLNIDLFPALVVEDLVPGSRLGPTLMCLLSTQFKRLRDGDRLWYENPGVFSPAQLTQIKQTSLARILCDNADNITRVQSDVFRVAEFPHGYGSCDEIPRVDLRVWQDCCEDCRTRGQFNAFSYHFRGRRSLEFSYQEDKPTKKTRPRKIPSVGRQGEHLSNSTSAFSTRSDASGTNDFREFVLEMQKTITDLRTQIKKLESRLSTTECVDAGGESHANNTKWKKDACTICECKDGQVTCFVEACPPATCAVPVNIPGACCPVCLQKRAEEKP

Structure (SMILES) | target | assay | conditions | how to read | remaining activity
COc1ccc(F)cc1C(=O)NCc1ccc(-c2nn([C@@H](C)C(F)(F)F)c(N)c2C(N)=O)cc1 | Dual specificity mitogen-activated protein kinase kinase 6 (MAP2K6, Homo sapiens, UniProt P52564) | kinase activity, inhibitor, HotSpot radiometric | 100 nM, with: ATP 10 µM | – | 91.1 ± 1.3%
O=C(O)c1ccc(Nc2ncc3c(n2)-c2ccc(Cl)cc2C(c2c(F)cccc2F)=NC3)cc1 | MRCKα(h) | kinase activity | 1 µM | – | 101%
O=C1NC(=O)/C(=C/c2ccc(-c3ccc(F)cc3O)o2)S1 | RAC-alpha serine/threonine-protein kinase (AKT1, Homo sapiens, UniProt P31749) | enzyme activity | 10 µM | – | 97%
COc1cc(Nc2ncc3c(n2)-c2ccc(Cl)cc2C(c2c(F)cccc2OC)=NC3)ccc1C(=O)O | STK22D | kinase activity | 1 µM | – | 108%
C=CC(=O)N1CCC[C@@H](n2nc(-c3ccc(Oc4ccccc4)cc3)c3c(N)ncnc32)C1 | Calcium/calmodulin-dependent protein kinase type 1 (CAMK1, Homo sapiens, UniProt Q14012) | – | 1 µM | – | 26.5%
Cc1cc(Nc2cc(N3CCN(C)CC3)nc(Sc3ccc(NC(=O)C4CC4)cc3)n2)[nH]n1 | High affinity nerve growth factor receptor (NTRK1, Homo sapiens, UniProt P04629) | kinase activity, KinaseProfiler | 0.03 µM, species human | relative to: control | 20%
COc1cc(F)ccc1-c1ncnc(Nc2cccc(C[S@](C)(=N)=O)c2)n1 | Phosphatidylinositol 4,5-bisphosphate 3-kinase catalytic subunit gamma isoform (PIK3CG, Homo sapiens, UniProt P48736) | kinase activity | 10 µM, with: ATP 10 µM | – | 99%
COc1cc(-c2cncc3c2CN(C)Cc2cc(N4CCNCC4)ccc2-3)cc(OC)c1OC | Serine/threonine-protein kinase STK11 (STK11, Homo sapiens, UniProt Q15831) | kinase activity | 1 µM, human enzyme, with: ATP 10 µM | relative to: DMSO control | 101%
NC/C(=C\F)COc1cccc(Cn2c(=S)[nH]c(=O)c3[nH]cnc32)c1 | Peroxidasin homolog (PXDN, Homo sapiens, UniProt Q92626) | Amplex UltraRed | 50 µM | relative to: control | 11.7%

Excerpt of the above:
Structure (SMILES) | target | assay | conditions | how to read | remaining activity
COc1cc(Nc2ncc3c(n2)-c2ccc(Cl)cc2C(c2c(F)cccc2OC)=NC3)ccc1C(=O)O | STK22D | kinase activity | 1 µM | – | 108%
